Measurements gathered from unrelated publications.
Numbered parts are unrelated; each lists some results of a single study.
Sequence of UniProt P35968 (whole entry, looked up): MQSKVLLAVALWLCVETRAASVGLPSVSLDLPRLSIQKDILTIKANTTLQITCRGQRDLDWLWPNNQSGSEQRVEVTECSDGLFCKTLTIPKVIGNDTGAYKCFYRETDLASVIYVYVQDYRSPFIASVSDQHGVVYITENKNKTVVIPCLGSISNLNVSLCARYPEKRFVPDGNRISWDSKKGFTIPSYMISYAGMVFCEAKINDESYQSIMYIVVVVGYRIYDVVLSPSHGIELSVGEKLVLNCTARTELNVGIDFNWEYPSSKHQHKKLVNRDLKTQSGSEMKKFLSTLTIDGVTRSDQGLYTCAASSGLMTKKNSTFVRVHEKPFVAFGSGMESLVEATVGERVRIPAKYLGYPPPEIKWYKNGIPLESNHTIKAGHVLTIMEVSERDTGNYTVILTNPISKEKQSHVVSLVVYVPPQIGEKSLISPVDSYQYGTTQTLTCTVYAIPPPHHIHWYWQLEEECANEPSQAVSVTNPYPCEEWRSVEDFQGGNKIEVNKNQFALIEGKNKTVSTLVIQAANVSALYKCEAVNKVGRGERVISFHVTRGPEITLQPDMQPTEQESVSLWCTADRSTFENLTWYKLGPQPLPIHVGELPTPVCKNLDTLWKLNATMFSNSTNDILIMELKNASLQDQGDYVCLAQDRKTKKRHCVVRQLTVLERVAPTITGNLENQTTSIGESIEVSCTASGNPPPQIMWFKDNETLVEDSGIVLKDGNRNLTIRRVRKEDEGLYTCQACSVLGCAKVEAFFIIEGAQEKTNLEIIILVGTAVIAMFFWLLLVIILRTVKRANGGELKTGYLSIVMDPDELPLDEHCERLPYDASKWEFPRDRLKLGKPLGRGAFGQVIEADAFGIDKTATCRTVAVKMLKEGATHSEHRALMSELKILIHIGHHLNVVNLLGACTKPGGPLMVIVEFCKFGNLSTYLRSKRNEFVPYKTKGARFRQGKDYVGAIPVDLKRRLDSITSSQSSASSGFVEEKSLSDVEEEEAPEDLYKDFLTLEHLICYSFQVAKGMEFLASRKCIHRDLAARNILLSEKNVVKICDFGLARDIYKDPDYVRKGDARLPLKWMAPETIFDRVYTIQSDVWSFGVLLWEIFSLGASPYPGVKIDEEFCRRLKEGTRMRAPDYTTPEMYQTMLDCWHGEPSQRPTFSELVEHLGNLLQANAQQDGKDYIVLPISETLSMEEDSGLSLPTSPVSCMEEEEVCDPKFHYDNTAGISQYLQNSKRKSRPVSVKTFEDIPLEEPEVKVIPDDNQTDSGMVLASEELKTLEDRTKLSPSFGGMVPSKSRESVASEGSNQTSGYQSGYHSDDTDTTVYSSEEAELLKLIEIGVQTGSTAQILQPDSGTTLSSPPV
Sequence of UniProt O14936 (whole entry, looked up): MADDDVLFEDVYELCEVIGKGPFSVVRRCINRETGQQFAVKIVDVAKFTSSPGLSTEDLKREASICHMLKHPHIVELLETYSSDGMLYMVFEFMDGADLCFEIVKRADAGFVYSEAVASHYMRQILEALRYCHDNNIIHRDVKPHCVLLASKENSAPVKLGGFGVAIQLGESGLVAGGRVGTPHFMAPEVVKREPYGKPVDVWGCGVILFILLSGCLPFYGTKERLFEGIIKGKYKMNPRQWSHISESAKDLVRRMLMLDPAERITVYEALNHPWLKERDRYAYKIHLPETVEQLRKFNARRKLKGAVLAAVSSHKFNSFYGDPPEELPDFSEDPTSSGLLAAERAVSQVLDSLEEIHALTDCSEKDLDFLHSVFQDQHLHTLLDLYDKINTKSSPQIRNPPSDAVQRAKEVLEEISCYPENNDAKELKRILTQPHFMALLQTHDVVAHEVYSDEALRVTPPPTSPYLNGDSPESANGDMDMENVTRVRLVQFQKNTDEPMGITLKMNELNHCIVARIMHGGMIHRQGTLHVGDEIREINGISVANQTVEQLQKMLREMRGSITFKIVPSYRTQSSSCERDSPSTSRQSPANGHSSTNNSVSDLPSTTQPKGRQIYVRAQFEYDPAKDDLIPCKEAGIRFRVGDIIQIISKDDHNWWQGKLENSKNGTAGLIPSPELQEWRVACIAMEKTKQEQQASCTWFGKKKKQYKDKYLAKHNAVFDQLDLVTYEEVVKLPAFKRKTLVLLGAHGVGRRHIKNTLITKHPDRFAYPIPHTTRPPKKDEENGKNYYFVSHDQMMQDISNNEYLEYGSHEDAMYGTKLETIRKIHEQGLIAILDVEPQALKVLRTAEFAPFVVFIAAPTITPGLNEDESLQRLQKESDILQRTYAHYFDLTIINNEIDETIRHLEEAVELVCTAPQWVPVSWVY
Sequence of UniProt Q8IWQ3 (whole entry, looked up): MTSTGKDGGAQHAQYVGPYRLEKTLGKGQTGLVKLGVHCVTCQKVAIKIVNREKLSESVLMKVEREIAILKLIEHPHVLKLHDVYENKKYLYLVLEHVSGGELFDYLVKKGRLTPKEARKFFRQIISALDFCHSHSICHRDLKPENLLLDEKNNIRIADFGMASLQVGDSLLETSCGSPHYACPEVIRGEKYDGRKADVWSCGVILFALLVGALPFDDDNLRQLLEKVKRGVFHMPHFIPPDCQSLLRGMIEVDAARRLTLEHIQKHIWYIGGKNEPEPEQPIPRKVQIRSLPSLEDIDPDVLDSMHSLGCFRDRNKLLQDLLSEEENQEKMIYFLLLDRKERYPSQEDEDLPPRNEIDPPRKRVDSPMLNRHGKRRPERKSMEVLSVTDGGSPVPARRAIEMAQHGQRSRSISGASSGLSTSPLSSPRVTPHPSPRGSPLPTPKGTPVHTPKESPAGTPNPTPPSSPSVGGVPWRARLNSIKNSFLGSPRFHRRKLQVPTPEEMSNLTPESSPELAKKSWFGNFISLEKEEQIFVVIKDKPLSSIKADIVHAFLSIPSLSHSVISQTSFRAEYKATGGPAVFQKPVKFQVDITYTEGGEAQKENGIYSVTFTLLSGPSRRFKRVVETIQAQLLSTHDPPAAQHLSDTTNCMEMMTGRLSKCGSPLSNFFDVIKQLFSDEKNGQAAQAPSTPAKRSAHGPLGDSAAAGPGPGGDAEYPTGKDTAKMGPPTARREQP
Sequence of UniProt Q15349 (whole entry, looked up): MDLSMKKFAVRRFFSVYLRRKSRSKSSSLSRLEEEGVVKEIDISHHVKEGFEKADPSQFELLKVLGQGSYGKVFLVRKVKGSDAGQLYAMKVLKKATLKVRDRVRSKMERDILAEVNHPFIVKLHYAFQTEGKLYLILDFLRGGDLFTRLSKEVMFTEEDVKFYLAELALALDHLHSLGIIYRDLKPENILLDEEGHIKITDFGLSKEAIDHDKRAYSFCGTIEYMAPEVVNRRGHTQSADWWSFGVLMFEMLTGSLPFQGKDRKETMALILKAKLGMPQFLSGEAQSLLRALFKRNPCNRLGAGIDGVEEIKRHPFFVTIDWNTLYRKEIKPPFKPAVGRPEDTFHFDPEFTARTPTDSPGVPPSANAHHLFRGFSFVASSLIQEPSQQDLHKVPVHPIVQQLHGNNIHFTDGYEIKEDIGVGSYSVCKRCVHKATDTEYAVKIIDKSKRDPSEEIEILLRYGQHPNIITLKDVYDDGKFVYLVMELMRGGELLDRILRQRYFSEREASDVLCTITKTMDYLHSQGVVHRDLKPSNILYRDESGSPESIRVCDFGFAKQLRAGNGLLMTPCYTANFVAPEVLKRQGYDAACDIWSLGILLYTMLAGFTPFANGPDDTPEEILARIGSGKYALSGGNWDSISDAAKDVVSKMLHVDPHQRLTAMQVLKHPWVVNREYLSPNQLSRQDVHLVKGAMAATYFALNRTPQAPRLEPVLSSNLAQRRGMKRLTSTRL
Sequence of UniProt Q16816 (whole entry, looked up): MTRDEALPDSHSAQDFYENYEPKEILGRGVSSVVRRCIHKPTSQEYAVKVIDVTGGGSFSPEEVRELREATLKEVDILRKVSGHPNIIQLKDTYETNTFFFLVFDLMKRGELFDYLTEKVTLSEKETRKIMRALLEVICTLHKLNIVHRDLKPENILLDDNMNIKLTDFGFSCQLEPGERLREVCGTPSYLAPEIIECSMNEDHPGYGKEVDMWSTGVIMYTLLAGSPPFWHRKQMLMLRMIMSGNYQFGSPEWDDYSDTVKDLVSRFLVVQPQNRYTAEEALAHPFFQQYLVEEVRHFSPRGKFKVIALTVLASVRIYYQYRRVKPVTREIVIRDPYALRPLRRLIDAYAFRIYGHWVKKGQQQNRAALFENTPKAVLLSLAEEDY
Sequence of UniProt P49674 (whole entry, looked up): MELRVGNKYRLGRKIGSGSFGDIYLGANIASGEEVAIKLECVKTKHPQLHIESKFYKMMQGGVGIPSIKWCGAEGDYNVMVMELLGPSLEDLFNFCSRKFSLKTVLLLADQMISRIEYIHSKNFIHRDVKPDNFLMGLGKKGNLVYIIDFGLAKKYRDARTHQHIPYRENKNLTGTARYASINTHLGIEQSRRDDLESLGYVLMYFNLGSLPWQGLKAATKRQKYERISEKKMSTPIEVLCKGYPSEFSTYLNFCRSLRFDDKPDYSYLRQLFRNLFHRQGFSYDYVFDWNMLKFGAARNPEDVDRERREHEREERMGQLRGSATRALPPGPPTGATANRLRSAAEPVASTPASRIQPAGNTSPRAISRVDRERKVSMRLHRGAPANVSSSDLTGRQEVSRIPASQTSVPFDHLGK

Set 1 — observed: cell-free assay; method: competition with immobilised ligand; tested at: 1 µM; endpoint: remaining binding
Compound: COc1ccc2c(c1)O[C@@H](c1ccc(OC)c(OC)c1)C[C@H]2NC(=O)C1(c2ccc3c(c2)OC(F)(F)O3)CC1
HCK (Homo sapiens, UniProt P08631): 88%
PIK3CG (Homo sapiens, UniProt P48736): 74%
CDC42BPA (Homo sapiens, UniProt Q5VT25): 90%
PIK3CA (Homo sapiens, UniProt P42336, E545K): 77%
TAOK2 (Homo sapiens, UniProt Q9UL54): 83%
MKNK2 (Homo sapiens, UniProt Q9HBH9): 93%
CSNK1E (Homo sapiens, UniProt P49674): 100%
MAPK4 (Homo sapiens, UniProt P31152): 99%
CASK (Homo sapiens, UniProt O14936): 100%
WNK1 (Homo sapiens, UniProt Q9H4A3): 100%
EGFR (Homo sapiens, UniProt P00533, L858R/T790M): 100%
FLT3 (Homo sapiens, UniProt P36888, ITD): 100%
ZAP70 (Homo sapiens, UniProt P43403): 71%
CLK4 (Homo sapiens, UniProt Q9HAZ1): 100%
Ribosomal protein S6 kinase alpha-2, N-terminal kinase domain (RPS6KA2, Homo sapiens, UniProt Q15349): 90%
COQ8B (Homo sapiens, UniProt Q96D53): 100%

Set 2 — observed: enzyme activity; mode: inhibitor; tested at: 0.5 µM; reference: control; endpoint: remaining activity
Target: Ribosomal protein S6 kinase beta-2 (RPS6KB2, Homo sapiens, UniProt Q9UBS0)
Sequence of UniProt Q9UBS0 (whole entry, looked up): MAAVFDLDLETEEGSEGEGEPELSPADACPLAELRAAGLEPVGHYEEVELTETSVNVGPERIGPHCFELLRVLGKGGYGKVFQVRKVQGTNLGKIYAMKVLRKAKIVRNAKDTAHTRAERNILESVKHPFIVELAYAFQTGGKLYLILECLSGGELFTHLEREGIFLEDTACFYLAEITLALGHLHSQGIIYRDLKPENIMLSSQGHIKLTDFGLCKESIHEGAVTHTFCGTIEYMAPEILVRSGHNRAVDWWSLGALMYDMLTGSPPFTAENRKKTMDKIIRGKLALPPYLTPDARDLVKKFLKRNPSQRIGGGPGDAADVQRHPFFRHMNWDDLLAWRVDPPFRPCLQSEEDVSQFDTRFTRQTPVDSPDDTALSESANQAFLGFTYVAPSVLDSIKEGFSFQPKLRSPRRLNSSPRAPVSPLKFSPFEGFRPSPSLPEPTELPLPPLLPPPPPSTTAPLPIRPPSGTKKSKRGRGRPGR
O=Nc1c(-c2c(O)[nH]c3ccccc23)[nH]c2ccccc12: 107%
CCN(CC)CCCCN1c2ccccc2Oc2ccc(Cl)cc21: 107%
CC(C)(C)c1nc2c3cc[nH]c(=O)c3c3cc(F)ccc3c2[nH]1: 102%
N#C/C(=C(/N)SC1C=CC=CC1)c1cccc(C(O)c2ccncc2)c1 (stereo not drawn): 98.9%
C[C@@H](N)[C@H]1CC[C@H](C(=O)Nc2ccncc2)CC1: 93.5%
CNc1cc2c(Nc3cccc(Br)c3)ncnc2cn1: 99.8%
COc1cc2c(Nc3ccc(Br)cc3F)ncnc2cc1OCC1CCN(C)CC1: 101%
O=c1c(-c2ccc(F)cc2)c(-c2ccncc2)[nH]n1-c1ccc(Cl)cc1: 95.5%
O=C(O)/C=C/c1cc(Br)c(Br)c(Br)c1Br: 93.8%
FC(F)(F)c1ccc(/C=C/c2nc(COc3ccc(CCCCn4ccnn4)cc3)co2)cc1: 103%
c1cc(-c2cnn3cc(-c4ccc(OCCN5CCCCC5)cc4)cnc23)ccn1: 94.9%
NC(=O)c1ccc(-c2nc(-c3ccc4c(c3)OCCO4)c(-c3ccccn3)[nH]2)cc1: 100%
COc1cc2c(N3CCN(C(=O)Nc4ccc(OC(C)C)cc4)CC3)ncnc2cc1OCCCN1CCCCC1: 102%
NC(=O)c1cccc(-c2cc(Nc3ccc(OC(F)(F)F)cc3)ncn2)c1: 102%
CC(C)n1cnc2c(Nc3cccc(Cl)c3)nc(NCCO)nc21: 97%
O=C1c2ccccc2-c2nc3nnnn3nc21: 86.3%
O=C1NC(=O)/C(=C/c2ccc3c(c2)OC(F)(F)O3)S1: 101%
O=C(c1ccccc1)c1ccc(N2CCOCC2)cc1O: 100%
N#CC(c1ccnc(NCCc2cccnc2)n1)c1nc2ccccc2s1 (stereo not drawn): 96.5%
Clc1ccc(Nc2nnc(Cc3ccncc3)c3ccccc23)cc1: 101%
CCCCc1c(-c2ccc(O)cc2)[nH]c2nccnc12: 102%
Nc1nc(Nc2ccc(S(N)(=O)=O)cc2)nn1C(=S)Nc1c(F)cccc1F: 96.2%
CC(C)N(CCC(=O)c1ccc2ccccc2c1)Cc1ccccc1: 94.3%

Set 3 — tested at: 1 µM; endpoint: inhibition
SMILES: C=CC(=O)N1CCC([C@@H]2CCNc3c(C(N)=O)c(-c4ccc(Oc5ccccc5)cc4)nn32)CC1
GRK7 (Homo sapiens, UniProt Q8WTQ7); enzyme activity, inhibitor: 11%
PHKG1 (Homo sapiens, UniProt Q16816); enzyme activity, inhibitor: 0%
DYRK2 (Homo sapiens, UniProt Q92630); enzyme activity, inhibitor: 0%
INSRR (Homo sapiens, UniProt P14616); cell-free assay: 8%
KIT (Homo sapiens, UniProt P10721, V559D); enzyme activity, inhibitor: 1%
KDR (Homo sapiens, UniProt P35968); cell-free assay: 0%
CHEK1 (Homo sapiens, UniProt O14757); enzyme activity, inhibitor: 21%
FLT3 (Homo sapiens, UniProt P36888, K663Q); enzyme activity, inhibitor: 39%
PDGFRB (Homo sapiens, UniProt P09619); enzyme activity, inhibitor: 9%
Ribosomal protein S6 kinase alpha-1, kinase domain 1 (RPS6KA1, Homo sapiens, UniProt Q15418); inhibitor: 21%
CDC42BPB (Homo sapiens, UniProt Q9Y5S2); enzyme activity, inhibitor: 0%
PRKCD (Homo sapiens, UniProt Q05655); enzyme activity, inhibitor: 8%
BUB1 (Homo sapiens, UniProt O43683); enzyme activity, inhibitor: 0%
DCLK2 (Homo sapiens, UniProt Q8N568); enzyme activity, inhibitor: 26%
MAP2K7 (Homo sapiens, UniProt O14733); enzyme activity, inhibitor: 36%
MAP3K5 (Homo sapiens, UniProt Q99683); enzyme activity, inhibitor: 10%

Set 4 — observed: binding; tested at: 1 µM; endpoint: remaining binding
SMILES: Cc1ccc(NC(=O)c2ccnc(C(F)(F)F)c2)cc1-c1cc(OCCO)nc(N2CCOCC2)c1
Insulin receptor (INSR, Homo sapiens, UniProt P06213): 81%
BTK (Homo sapiens, UniProt Q06187); competition with immobilised ligand: 87%
DCLK3 (Homo sapiens, UniProt Q9C098); competition with immobilised ligand: 100%
NEK1 (Homo sapiens, UniProt Q96PY6): 100%
LYN (Homo sapiens, UniProt P07948); competition with immobilised ligand: 78%
TBK1 (Homo sapiens, UniProt Q9UHD2): 78%
BRSK2 (Homo sapiens, UniProt Q8IWQ3): 100%
ABL1 (Homo sapiens, UniProt P00519, H396P): 100%
MAP4K1 (Homo sapiens, UniProt Q92918); competition with immobilised ligand: 83%
MAPK15 (Homo sapiens, UniProt Q8TD08); competition with immobilised ligand: 86%
TNK1 (Homo sapiens, UniProt Q13470); competition with immobilised ligand: 100%

For quick reference, copied from above (set 2):
O=Nc1c(-c2c(O)[nH]c3ccccc23)[nH]c2ccccc12: 107%
CCN(CC)CCCCN1c2ccccc2Oc2ccc(Cl)cc21: 107%
CC(C)(C)c1nc2c3cc[nH]c(=O)c3c3cc(F)ccc3c2[nH]1: 102%
N#C/C(=C(/N)SC1C=CC=CC1)c1cccc(C(O)c2ccncc2)c1 (stereo not drawn): 98.9%
C[C@@H](N)[C@H]1CC[C@H](C(=O)Nc2ccncc2)CC1: 93.5%
CNc1cc2c(Nc3cccc(Br)c3)ncnc2cn1: 99.8%
COc1cc2c(Nc3ccc(Br)cc3F)ncnc2cc1OCC1CCN(C)CC1: 101%
